# Experimental data gathered from unrelated publications.
# A part holds a random share of what one study measured. Changes are numbered by the printed parent chain.

# Study 1
# Target: Sal-like protein 4, full length isoform A (SALL4, Homo sapiens, UniProt Q9UJQ4, residues 1-1053)
# UniProt Q9UJQ4, sequence (whole entry, looked up): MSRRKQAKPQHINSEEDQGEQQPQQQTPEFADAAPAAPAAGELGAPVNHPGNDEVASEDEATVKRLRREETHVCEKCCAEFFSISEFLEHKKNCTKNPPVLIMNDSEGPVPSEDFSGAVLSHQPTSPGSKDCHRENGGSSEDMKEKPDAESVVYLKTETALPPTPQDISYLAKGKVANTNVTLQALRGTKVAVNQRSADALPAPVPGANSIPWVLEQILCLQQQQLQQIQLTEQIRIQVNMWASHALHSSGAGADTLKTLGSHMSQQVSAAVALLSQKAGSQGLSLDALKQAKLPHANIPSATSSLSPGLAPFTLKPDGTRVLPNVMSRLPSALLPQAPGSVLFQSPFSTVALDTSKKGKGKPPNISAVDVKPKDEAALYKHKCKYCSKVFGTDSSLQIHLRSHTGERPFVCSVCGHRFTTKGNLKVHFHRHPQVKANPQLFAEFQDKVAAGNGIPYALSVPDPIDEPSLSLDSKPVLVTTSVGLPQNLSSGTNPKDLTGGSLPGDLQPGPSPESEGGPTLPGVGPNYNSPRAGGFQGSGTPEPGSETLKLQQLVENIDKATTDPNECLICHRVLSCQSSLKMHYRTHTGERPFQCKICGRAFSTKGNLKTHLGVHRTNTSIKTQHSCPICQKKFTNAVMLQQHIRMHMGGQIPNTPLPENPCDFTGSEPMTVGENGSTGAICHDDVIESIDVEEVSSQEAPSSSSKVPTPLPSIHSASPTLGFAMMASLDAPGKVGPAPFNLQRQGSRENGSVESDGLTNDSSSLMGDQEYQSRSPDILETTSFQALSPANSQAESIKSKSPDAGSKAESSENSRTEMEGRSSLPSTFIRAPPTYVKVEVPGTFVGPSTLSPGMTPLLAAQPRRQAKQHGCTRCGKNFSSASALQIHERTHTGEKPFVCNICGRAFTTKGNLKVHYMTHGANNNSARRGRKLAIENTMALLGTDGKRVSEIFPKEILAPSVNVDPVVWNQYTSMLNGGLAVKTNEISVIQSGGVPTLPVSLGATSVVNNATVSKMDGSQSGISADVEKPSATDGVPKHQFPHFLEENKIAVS
# Technique: universal PBM
# Form: double-stranded DNA, one strand shown
# Sample: in vitro
# Tested at: 600 nM
# Notes: 8-mer, flanks averaged, mean of replicates
# Direction: higher = stronger binding
Sequence,E-score
AGTCCCTC,-0.131
ACCATCGG,-0.266
AGACAGCG,-0.176
CAATTCGA,0.0434
ATGGGGTA,-0.00496
TCCACCAA,-0.0175
CCATGTAC,0.0202
GCAAAAGC,0.117

# Study 2
# Target: PABPC1L2, full length, GST fusion (mouse, UniProt A0ABA7IW68)
# Technique: RNAcompete
# Form: RNA
# Sample: in vitro
# Tested at: 20 nM
# Notes: 7-mer, probes averaged, single round
# Baseline: mean of 7-mers
# Direction: higher = stronger binding
# Construct (chain): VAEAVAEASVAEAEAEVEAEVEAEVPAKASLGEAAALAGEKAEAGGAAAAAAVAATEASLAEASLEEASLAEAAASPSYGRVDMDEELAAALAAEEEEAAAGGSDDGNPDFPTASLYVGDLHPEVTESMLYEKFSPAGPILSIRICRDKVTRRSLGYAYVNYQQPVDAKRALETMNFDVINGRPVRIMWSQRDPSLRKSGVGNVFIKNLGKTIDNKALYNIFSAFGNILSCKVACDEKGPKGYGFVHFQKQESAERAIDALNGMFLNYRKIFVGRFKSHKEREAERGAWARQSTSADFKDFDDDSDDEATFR
Sequence,7-mer Z-score
GCCCCUA,-0.306
CUAGACU,-0.19
UCGGGUC,-0.175
CAUCUUA,-0.324
CGAAUGA,-0.0156
UAUGGAU,-0.00108
AUAUCAC,-0.124
UGACUGA,-0.171

# Further values, each from its own experiment
# P1: viral docking peptide; KGVKRKLFAEDSS; partner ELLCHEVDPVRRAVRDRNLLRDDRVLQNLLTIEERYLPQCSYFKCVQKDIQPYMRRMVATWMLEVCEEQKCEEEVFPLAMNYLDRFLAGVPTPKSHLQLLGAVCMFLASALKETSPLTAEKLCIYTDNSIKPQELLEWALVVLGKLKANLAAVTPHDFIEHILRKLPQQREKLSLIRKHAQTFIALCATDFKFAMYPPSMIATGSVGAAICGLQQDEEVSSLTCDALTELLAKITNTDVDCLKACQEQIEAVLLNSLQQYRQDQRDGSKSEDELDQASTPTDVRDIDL
Substance,target,test,test system,conditions,scale,endpoint,value
"PhoQ, residues 284 288 289 292 302 303 MLMVEA","PhoP, residues 12 14 15 18 19 GHCSL (Escherichia coli, UniProt P23836)","Sort-seq, measured: YFP reporter",E. coli,"PhoQ-PhoP variant library, with: 10 µM Mg2+","baseline: high Mg2+ state, higher = stronger signaling",fold induction,5.07
P1 D11N,"CCND2, cyclin fold, Cln2 fusion (human)","yeast growth competition, sequencing",yeast,weak parent motif,"baseline: not given, higher = stronger binding",normalised enrichment score,0.0436

# A few entries again (study 2):
Sequence,7-mer Z-score
GCCCCUA,-0.306
CUAGACU,-0.19
UCGGGUC,-0.175
